# Results from different studies.
# Values joined by “and” are separate records of one study, mostly repeats; a detail may differ. Numbers after ± are the reported error.
Compound,tested on,test,test system,setting,how to read,quantity,value
CC[C@H](C)[C@H](NC(=O)[C@@H](NC(=O)[C@H](CCCCN)NC(=O)[C@H](CCC(N)=O)NC(=O)[C@@H](NC(=O)[C@H](Cc1c[nH]c2ccccc12)NC(=O)[C@H](CCCCN)NC(=O)[C@H](CCCCN)NC(=O)[C@H](CC(C)C)NC(=O)[C@H](CCCNC(=N)N)NC(=O)[C@H](Cc1ccccc1)NC(=O)[C@@H](N)C(C)C)[C@@H](C)CC)C(C)C)C(N)=O,sheep red blood cells,10% haemolysis,,"1 h, 37 °C",,minimum haemolytic concentration,210 µM
CC[C@H](C)[C@H](NC(=O)CNC(=O)[C@@H](NC(=O)CNC(=O)[C@@H](NC(=O)CNC(=O)[C@@H](NC(=O)[C@@H](NC(=O)[C@H](CCC(N)=O)NC(=O)[C@H](CCC(=O)O)NC(=O)[C@@H](NC(=O)[C@H](CC(C)C)NC(=O)[C@H](CCCNC(=N)N)NC(=O)[C@H](Cc1ccccc1)NC(=O)[C@@H](NC(=O)[C@H](CC(N)=O)NC(=O)[C@H](CCCCN)NC(=O)CNC(=O)[C@H](CCSC)NC(=O)[C@H](CCCCN)NC(=O)CNC(=O)[C@H](CC(C)C)NC(=O)[C@H](CCCCN)NC(=O)[C@H](CCCCN)NC(=O)CNC(=O)[C@H](Cc1ccccc1)NC(=O)[C@H](CCCCN)NC(=O)[C@H](CCCCN)NC(=O)[C@H](CC(C)C)NC(=O)[C@H](Cc1c[nH]c2ccccc12)NC(=O)CN)C(C)C)C(C)C)C(C)C)C(C)C)C(C)C)C(C)C)C(=O)N[C@@H](CC(N)=O)C(=O)N[C@@H](C)C(=O)N[C@@H](CC(C)C)C(=O)N[C@@H](CO)C(=O)O,rat erythrocytes,haemolysis,,"1 h, 37 °C, 2% erythrocytes in PBS",,HC50,2.77 log10 µg/mL
CC[C@H](C)[C@H](NC(=O)[C@@H](NC(=O)[C@H](C)NC(=O)[C@H](C)NC(=O)[C@H](CCC(N)=O)NC(=O)CNC(=O)[C@@H](NC(=O)[C@@H](NC(=O)[C@H](C)NC(=O)[C@@H](NC(=O)[C@H](C)NC(=O)[C@@H]1CCCN1C(=O)CNC(=O)[C@H](C)NC(=O)[C@H](CCCCN)NC(=O)[C@@H](NC(=O)[C@@H](NC(=O)CNC(=O)[C@H](CC(=O)O)NC(=O)[C@H](CCCNC(=N)N)NC(=O)[C@@H](NC(=O)[C@H](CC(N)=O)NC(=O)[C@H](CCC(N)=O)NC(=O)CNC(=O)[C@@H](NC(=O)[C@H](CCCCN)NC(=O)[C@H](CCC(=O)O)NC(=O)[C@@H](NC(=O)[C@H](CCCCN)NC(=O)[C@H](CCCCN)NC(=O)[C@H](Cc1ccccc1)NC(=O)[C@@H](NC(=O)[C@H](CCCCN)NC(=O)[C@H](Cc1c[nH]c2ccccc12)NC(=O)[C@@H](N)CCCNC(=N)N)[C@@H](C)CC)[C@@H](C)CC)C(C)C)[C@@H](C)CC)[C@@H](C)CC)C(C)C)C(C)C)C(C)C)C(C)C)[C@@H](C)O)C(N)=O,MCF7,CCK-8,,"8 µM, 24 h, 1% FBS",,cytotoxicity,not toxic
CC(=O)NCC(=O)N[C@@H](CCCNC(=N)N)C(=O)N[C@@H](CCCCN)C(=O)N[C@@H](CCCCN)C(=O)N[C@@H](CCCNC(=N)N)C(=O)N[C@@H](CCCNC(=N)N)C(=O)N[C@@H](CCC(N)=O)C(=O)N[C@@H](CCCNC(=N)N)C(=O)N[C@@H](CCCNC(=N)N)C(=O)N[C@@H](CCCNC(=N)N)C(=O)N1CCC[C@H]1C(=O)N[C@@H](CCC(N)=O)C(N)=O,HEK-293T,subcellular fractionation LC-MS,cytoplasmic fraction,"20 µM, 2 h",,concentration,39.7 nM and 31.8 nM and 29.4 nM
COc1cc(OC)cc([C@@H]2c3cc(/C=C/c4cc(O)cc(O)c4)ccc3O[C@H]2c2ccc(O)cc2)c1,dog cells,,,1 (unit not given),,CC50,784 µM
CNC(=O)CC[C@H](Cc1ccccc1)NC(=O)[C@@H](Cc1ccc(Cl)cc1Cl)NC(=O)[C@H](N)Cc1ccccc1[N+](=O)[O-],Huh-7-ACE2,CellTiter-Glo,,"0.000381 µM, 48 h, unit not given",reference: DMSO,viability,0.88 and 0.921 and 1
CC[C@H](C)[C@H](NC(=O)[C@H](C)NC(=O)[C@H](CCCCN)NC(=O)[C@H](CCCCN)NC(=O)[C@@H](N)CCCNC(=N)N)C(=O)N[C@@H](CCCCN)C(=O)N[C@@H](CC(C)C)C(=O)N[C@H](C(=O)N[C@@H](CCCCN)C(=O)N[C@@H](CCCCN)C(=O)N[C@@H](CC(C)C)C(=O)N[C@H](C(=O)N[C@@H](CCCCN)C(=O)N[C@@H](CCCCN)C(=O)N[C@@H](CC(C)C)C(=O)N[C@@H](CCCCN)C(=O)N[C@@H](CCCCN)C(=O)N[C@@H](C)C(=O)N[C@@H](CC(C)C)C(=O)N[C@@H](CCCCN)C(=O)O)C(C)C)C(C)C,HaCaT,MTT,,32 mg/L,reference: untreated,cell growth,73.4% and 90% and 81.9% and 84.9% and 89.5%
O=C(CCOCC(COCCC(=O)NC(Cc1c(-c2cc(C(=O)O)cc(C(=O)O)c2)[nH]c2c(-c3cc(C(=O)O)cc(C(=O)O)c3)cccc12)C(=O)O)(COCCC(=O)NC(Cc1c(-c2cc(C(=O)O)cc(C(=O)O)c2)[nH]c2c(-c3cc(C(=O)O)cc(C(=O)O)c3)cccc12)C(=O)O)COCCC(=O)NC(Cc1c(-c2cc(C(=O)O)cc(C(=O)O)c2)[nH]c2c(-c3cc(C(=O)O)cc(C(=O)O)c3)cccc12)C(=O)O)NC(Cc1c(-c2cc(C(=O)O)cc(C(=O)O)c2)[nH]c2c(-c3cc(C(=O)O)cc(C(=O)O)c3)cccc12)C(=O)O (stereo not shown),Vero E6-TMPRSS2,,,24 (unit not given),,CC50,> 50 µM
CC[C@H](C)[C@H](N)C(=O)N[C@@H](CCCNC(=N)N)C(=O)N[C@H](C(=O)N[C@@H](Cc1c[nH]c2ccccc12)C(=O)N[C@@H](CCCCN)C(=O)N[C@@H](CCCCN)C(=O)N[C@H](C(=O)N[C@H](C(=O)N[C@@H](CCCNC(=N)N)C(=O)N[C@@H](CCCCN)C(=O)N[C@@H](Cc1c[nH]c2ccccc12)C(=O)N[C@@H](CCCCN)C(=O)N[C@@H](C)C(=O)N[C@H](C(=O)N[C@@H](Cc1c[nH]c2ccccc12)C(=O)N[C@@H](Cc1c[nH]cn1)C(N)=O)[C@@H](C)CC)C(C)C)[C@@H](C)CC)C(C)C,rat erythrocytes,,,"200 µM, 60 min, 37 °C",,hemolysis,9.3 ± 0.3%
CN(C)CCCNC(=O)[C@@H]1NC(=O)[C@@H]2Cc3ccc(cc3)Oc3cc4cc(c3O)-c3ccc5c(c[nH]c5c3)C[C@@H](NC(=O)C(NC(=O)CCCCCN)c3ccc(O)cc3)C(=O)N[C@H](c3ccc(O)cc3)C(=O)N[C@H]4C(=O)N[C@@H](C(=O)N2C)c2ccc(cc2)Oc2cc1ccc2O (stereo partly shown),human red blood cells,,PBS,"2 µg/mL, 1 h, pH 7.4, 37 °C",,hemolysis,0.95%
CNC(=O)C[C@H](Cc1ccncc1)NC(=O)[C@@H](Cc1cccc(Br)c1)NC(=O)[C@@H](N)Cc1ccsc1,Huh-7-ACE2,CellTiter-Glo,,"0.000763 µM, 48 h, unit not given",reference: DMSO,viability,0.931 and 0.909 and 0.961
COc1cc(/C=C/C(=O)Oc2cc(C(F)(F)F)cc(C(F)(F)F)c2)ccc1O,HaCaT,"cell growth or viability, MTT",,24 h,,CC50,25.1 µM
CC[C@H](C)[C@H](NC(=O)[C@H](C)NC(=O)[C@H](CCCCN)NC(=O)[C@H](CC(C)C)NC(=O)[C@@H](N)Cc1ccccc1)C(=O)N[C@@H](CCCCN)C(=O)N[C@@H](CCCCN)C(=O)N[C@@H](Cc1ccccc1)C(=O)NCC(=O)N[C@@H](CCCCN)C(=O)N[C@@H](CCC(=O)O)C(=O)N[C@@H](Cc1ccccc1)C(=O)N[C@@H](CCCCN)C(=O)N[C@@H](CCCCN)C(=O)N[C@H](C(=O)NCC(=O)N[C@@H](C)C(=O)N[C@@H](CCCCN)C(=O)N[C@@H](CC(C)C)C(=O)N[C@@H](CCCCN)C(=O)O)[C@@H](C)CC,HaCaT,MTT,,32 mg/L,reference: untreated,cell growth,89.5% and 98.8% and 83.6% and 86.3%
CC(=O)c1c(O)c(C)c(O)c2c1OC1=CC(=O)C(=C(C)NCCNc3ccnc4cc(Cl)ccc34)C(=O)C12C (stereo not shown),L6 rat skeletal myoblasts,"cytotoxicity, Alamar Blue",,,,IC50,8.29 µM
CC[C@H](C)[C@H](NC(=O)[C@@H](NC(=O)[C@H](CCCCN)NC(=O)[C@H](CCCCN)NC(=O)[C@@H](NC(=O)[C@H](Cc1c[nH]c2ccccc12)NC(=O)[C@H](CCCCN)NC(=O)[C@H](CCCCN)NC(=O)[C@H](CC(C)C)NC(=O)[C@H](CCCNC(=N)N)NC(=O)[C@H](Cc1ccccc1)NC(=O)[C@@H](N)C(C)C)[C@@H](C)CC)C(C)C)C(N)=O,sheep red blood cells,10% haemolysis,,"1 h, 37 °C",,minimum haemolytic concentration,> 256 µM
O=C1NC2(CC2)COc2ncc(F)cc2[C@H]2COCCN2c2ccn3ncc1c3n2,,,"Sprague-Dawley rat, male, thymus","oral, 20 mg/kg/day, 4 weeks",,organ weight,0.594 ± 0.099 g
